Measurements gathered from unrelated publications.
Every numbered part comes from another study and shows a few of its results, in no order. “And” joins repeats or separate records; there may be more than shown.

Sample 1
Organism: Vesicular stomatitis virus
Observed: pseudovirus infection
Method: FDA-approved drug library screen
Tested at: concentration not given
Notes: VSV-G control pseudotype
Baseline: vehicle
SMILES | GFP-positive cells
NC(=O)NO | 89.8%
O=c1[nH]cc(F)c(=O)[nH]1 | 106%
CC(=O)OCC(=O)[C@@]1(O)[C@H](C)C[C@H]2[C@@H]3CCC4=CC(=O)C=C[C@]4(C)[C@@]3(F)[C@@H](O)C[C@@]21C | 90.7%
COc1ccccc1OCCNCC(O)COc1cccc2[nH]c3ccccc3c12.O=P(O)(O)O (stereo not drawn) | 81.1%
CCc1cc(C(N)=S)ccn1 | 118%
NC(=O)CCC(N)C(=O)O (racemic) | 73.1%
CC(C)(S)[C@@H](N)C(=O)O | 102%
C[C@]12CC[C@@H]3c4ccc(O)cc4CC[C@H]3[C@@H]1CCC2=O | 108%
Cl.Cn1c(CCCC(=O)O)nc2cc(N(CCCl)CCCl)ccc21 | 113%
CC(C)OC(=O)[C@H](C)N[P@](=O)(OC[C@H]1O[C@@H](n2ccc(=O)[nH]c2=O)[C@](C)(F)[C@@H]1O)Oc1ccccc1 | 121%
N#CC[C@H](C1CCCC1)n1cc(-c2ncnc3[nH]ccc23)cn1.O=P(O)(O)O | 111%
C[S+](C)[O-] | 108%
CN(C)CCC(c1ccc(Br)cc1)c1ccccn1.O=C(O)/C=C\C(=O)O (stereo not drawn) | 102%

Sample 2
Cell line: mouse MPNST tumor cells
Method: high-content nuclear imaging
Measured: cell number
Tested at: 10 µM
Time: 12 h
Notes: mean of 2 replicates
Baseline: plate mean
Direction: higher = more cells
SMILES | nuclei count
COC(=O)N1CCN(C(=O)Cc2ccc(Cl)c(Cl)c2)C(CN2CCCC2)C1 (stereo not drawn) | 0.915 z-score
CCC(COC(=O)c1cc(OC)c(OC)c(OC)c1)(c1ccccc1)N(C)C (stereo not drawn) | 0.528 z-score
CN1CCc2cc(Cl)c(O)cc2[C@H]2c3ccccc3CC[C@@H]21 | 4.72 z-score
CCC1(C)CC(=O)NC(=O)C1 | 1.98 z-score
NCCc1cn(S(=O)(=O)c2c(Cl)nc3sccn23)c2ccccc12 | -6.12 z-score
COc1cc(C(=O)N2CC[C@@H](O)[C@@H](N)C2)cc2nc(-c3cc4ccccc4n3CC3CC3)n(C)c12 | -4.13 z-score
CC12CC(=O)C3C(CCC4=CC(=O)CCC43C)C1CCC2=O (stereo not drawn) | 3.78 z-score
COC(=O)C=CC(=O)NC1CCC2(O)C3Cc4ccc(O)c5c4C2(CCN3CC2CC2)C1O5 (stereo not drawn) | -1.95 z-score
CCC1(c2cccc(O)c2)CCCCN(C)C1 (stereo not drawn) | 1.69 z-score and 1.67 z-score

Sample 3
SMILES: CNC(=O)c1ccc(-c2cnn3ccc(C(=O)N(C)c4ccc(Cl)c(C(=O)OC)c4)cc23)cc1
Organism: Cryptosporidium parvum
Method: time-kill
Cell line: HCT-8
Strain: nanoluciferase-expressing
Baseline: DMSO control
tested at | time | luminescence remaining
0.02743 µM | 0 h | 102% and 93.1% and 113% and 94.5% and 106% and 97.9% and 85.3%
2.222 µM | 48 h | 11.2% and 9.99%
2.222 µM | 0 h | 135% and 107% and 119% and 111% and 85% and 87.2% and 96.3% and 102%
6.667 µM | 48 h | 11.8% and 13.6%
0.02743 µM | 8 h | 77.6% and 92.8%
2.222 µM | 24 h | 40.7% and 41.3%
0.7407 µM | 4 h | 105% and 104%
20 µM | 72 h | 10.7% and 8.72%
0.00305 µM | 72 h | 79.6% and 95.1%
0.2469 µM | 24 h | 29.5% and 41.8%

Sample 4
Target: Sodium-dependent dopamine transporter (SLC6A3, Homo sapiens, UniProt Q01959)
UniProt Q01959, sequence (whole entry, looked up): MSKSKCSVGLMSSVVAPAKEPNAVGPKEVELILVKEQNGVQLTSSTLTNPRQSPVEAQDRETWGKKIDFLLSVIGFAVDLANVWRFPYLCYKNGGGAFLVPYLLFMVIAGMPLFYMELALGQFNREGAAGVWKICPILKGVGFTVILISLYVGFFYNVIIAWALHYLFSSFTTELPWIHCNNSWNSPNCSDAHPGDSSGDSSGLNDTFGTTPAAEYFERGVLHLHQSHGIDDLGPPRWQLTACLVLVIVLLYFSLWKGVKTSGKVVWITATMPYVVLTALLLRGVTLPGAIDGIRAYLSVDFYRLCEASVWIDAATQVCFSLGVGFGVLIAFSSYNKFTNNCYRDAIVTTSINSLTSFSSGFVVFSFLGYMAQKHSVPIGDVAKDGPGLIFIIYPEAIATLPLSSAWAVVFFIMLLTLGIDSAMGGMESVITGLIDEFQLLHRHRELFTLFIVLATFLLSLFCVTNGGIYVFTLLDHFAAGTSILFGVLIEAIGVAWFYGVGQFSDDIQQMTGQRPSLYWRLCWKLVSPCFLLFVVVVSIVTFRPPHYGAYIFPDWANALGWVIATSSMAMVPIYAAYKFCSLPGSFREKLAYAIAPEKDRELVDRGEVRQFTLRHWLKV
Observed: cell-free assay
Tested at: 10 µM
SMILES | inhibition [%]
O=C(Nc1ccc(Oc2ccc(F)cc2)cc1)N1CCc2ncccc2[C@H]1c1ccc(F)cc1 | -22.8
CS(=O)(=O)N1CCCC(NC(=O)[C@H](CCC2CCCCC2)NC(=O)c2ccc(CNC(=O)c3cnc4ccccn34)cc2)C1 (stereo partly drawn) | 11.5
Cc1ccccc1Oc1cc(-n2c(=O)cc(C(F)(F)F)[nH]c2=O)c2ccccc2c1Cl | -24.1
O=C(c1ccc(F)cc1)N1CC(COc2ccc(Br)cc2)(C(=O)O)C1 | 6.07
N#CC1(c2ccccn2)CCN(Cc2cc(C(=O)N3CCCC3)c(=O)n3ccccc23)CC1 | 18.6
Cc1ncc(-c2cc(Cl)ccc2F)cc1-n1c(=O)n(CC(N)=O)c2ccccc21 | -4.34
c1ccc(N2CCN(Cc3nc4ccccc4[nH]3)CC2)nc1 | -2.13
FC(F)(F)c1ccc2c(c1)nc(-c1cccnc1)n2C1CC1 | 15.3
N#CC1(c2ccccn2)CCN(Cc2cc(C(=O)O)c(=O)n3ccccc23)CC1 | -7.27
Cc1c(NC(=O)c2cc(C(N)=O)nc3cc(F)ccc23)c(C(F)(F)F)nn1Cc1ccc(C#N)cc1 | 8.22
O=S(=O)(NC1CCC(c2cc(F)ccc2F)(S(=O)(=O)c2ccc(Cl)cc2)CC1)C(F)(F)F (stereo not drawn) | 75.1
COc1ccc2cc(OCC3(C(=O)O)CN(C(=O)c4ccc(F)cc4)C3)ccc2c1 | -14.5
CC(=O)Nc1c(C(C)=O)c(=O)n(C)c2nc(-c3ccc(Cl)cc3Cl)c(-c3ccc(Cl)cc3)cc12 | 36.4
CN(C)CC#Cc1ccc(OCCCc2sc(N3CCc4cccc(C(=O)Nc5nc6ccccc6s5)c4C3)nc2C(=O)O)c(F)c1 | -20.2
COCCOc1nc(-c2ccc(Cl)nc2)nc2c1CN(C(=O)c1ncn3ccccc13)CC2 | -16.6
CS(=O)(=O)c1cc(C2(NC(=O)c3cncc4c3cnn4-c3ccc(F)cc3)CC2)ccn1 | 22.5
Nc1nc(NCc2ccccc2)nc(-c2cccc(CO)c2)n1 | -9.76
Nc1cnc(N2CCc3cc(S(=O)(=O)Nc4c(F)cc(Cl)cc4F)cc(N4CCCC4=O)c32)nc1 | 20.2
NS(=O)(=O)c1cc(NC(=O)C2(c3ccccc3Cl)CC2)ccc1Oc1cccc(Cl)c1 | -12.9
